Assay results collected from several papers.
Numbered parts are unrelated; each lists some results of a single study.
Sequence of UniProt P49759 (whole entry, looked up): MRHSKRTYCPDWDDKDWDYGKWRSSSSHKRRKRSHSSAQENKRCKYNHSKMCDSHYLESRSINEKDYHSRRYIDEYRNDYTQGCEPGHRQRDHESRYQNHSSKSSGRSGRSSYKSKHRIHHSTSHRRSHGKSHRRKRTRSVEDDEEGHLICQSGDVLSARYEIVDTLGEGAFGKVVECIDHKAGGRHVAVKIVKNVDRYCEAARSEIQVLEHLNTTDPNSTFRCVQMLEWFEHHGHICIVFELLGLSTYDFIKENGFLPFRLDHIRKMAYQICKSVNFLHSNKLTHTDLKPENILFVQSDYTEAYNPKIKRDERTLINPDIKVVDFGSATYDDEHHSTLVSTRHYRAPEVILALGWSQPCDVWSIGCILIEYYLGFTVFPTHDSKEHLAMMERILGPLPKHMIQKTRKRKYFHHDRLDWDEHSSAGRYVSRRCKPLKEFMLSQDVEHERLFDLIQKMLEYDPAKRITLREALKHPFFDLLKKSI
Sequence of UniProt Q9UBE8 (whole entry, looked up): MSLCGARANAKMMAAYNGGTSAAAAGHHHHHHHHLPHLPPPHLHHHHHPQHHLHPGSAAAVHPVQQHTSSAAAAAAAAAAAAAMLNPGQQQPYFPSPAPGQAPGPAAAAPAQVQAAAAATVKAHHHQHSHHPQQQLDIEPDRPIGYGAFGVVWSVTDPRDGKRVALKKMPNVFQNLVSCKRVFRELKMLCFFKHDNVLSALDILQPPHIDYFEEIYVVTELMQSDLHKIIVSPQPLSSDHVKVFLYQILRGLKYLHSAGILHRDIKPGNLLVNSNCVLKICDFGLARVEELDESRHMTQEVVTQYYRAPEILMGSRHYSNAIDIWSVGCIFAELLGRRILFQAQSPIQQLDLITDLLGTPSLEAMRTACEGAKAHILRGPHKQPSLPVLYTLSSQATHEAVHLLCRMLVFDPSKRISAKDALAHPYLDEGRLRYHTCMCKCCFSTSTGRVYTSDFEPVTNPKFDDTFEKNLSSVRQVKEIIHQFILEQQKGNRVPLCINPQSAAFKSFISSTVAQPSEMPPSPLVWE
Sequence of UniProt Q8TDC3 (whole entry, looked up): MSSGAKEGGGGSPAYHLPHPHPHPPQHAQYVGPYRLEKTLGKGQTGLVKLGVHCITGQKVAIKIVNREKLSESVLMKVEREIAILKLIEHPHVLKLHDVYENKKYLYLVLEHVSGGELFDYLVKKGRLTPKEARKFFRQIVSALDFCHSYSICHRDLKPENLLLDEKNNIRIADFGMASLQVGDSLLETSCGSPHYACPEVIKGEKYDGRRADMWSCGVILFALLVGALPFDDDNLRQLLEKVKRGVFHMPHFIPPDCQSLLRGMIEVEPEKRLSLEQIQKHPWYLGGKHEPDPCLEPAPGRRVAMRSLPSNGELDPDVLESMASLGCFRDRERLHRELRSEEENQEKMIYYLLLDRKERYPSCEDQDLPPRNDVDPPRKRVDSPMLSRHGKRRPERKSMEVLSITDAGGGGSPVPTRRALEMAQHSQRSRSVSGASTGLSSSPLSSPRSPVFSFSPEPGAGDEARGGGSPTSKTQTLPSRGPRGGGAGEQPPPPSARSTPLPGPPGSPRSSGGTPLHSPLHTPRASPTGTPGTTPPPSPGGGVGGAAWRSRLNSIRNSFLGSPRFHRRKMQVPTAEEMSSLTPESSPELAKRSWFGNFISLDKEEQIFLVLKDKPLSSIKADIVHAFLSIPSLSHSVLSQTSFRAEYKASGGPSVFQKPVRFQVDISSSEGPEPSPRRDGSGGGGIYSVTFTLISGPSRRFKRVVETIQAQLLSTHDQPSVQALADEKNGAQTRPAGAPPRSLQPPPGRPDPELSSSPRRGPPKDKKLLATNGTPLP

Sample 1 — technique: competition protein-binding microarray; form: double-stranded DNA, one strand shown; matrix: in vitro; tested at: 2 µM; together with: Cbf1 competitor, 0.05 µM; reading: higher = stronger binding
Target: Phosphate system positive regulatory protein PHO4, full length, GST-tagged (PHO4, Saccharomyces cerevisiae, UniProt P07270, residues 1-312)
Notes: whole 60-bp probe, lowest competitor level
Construct (chain): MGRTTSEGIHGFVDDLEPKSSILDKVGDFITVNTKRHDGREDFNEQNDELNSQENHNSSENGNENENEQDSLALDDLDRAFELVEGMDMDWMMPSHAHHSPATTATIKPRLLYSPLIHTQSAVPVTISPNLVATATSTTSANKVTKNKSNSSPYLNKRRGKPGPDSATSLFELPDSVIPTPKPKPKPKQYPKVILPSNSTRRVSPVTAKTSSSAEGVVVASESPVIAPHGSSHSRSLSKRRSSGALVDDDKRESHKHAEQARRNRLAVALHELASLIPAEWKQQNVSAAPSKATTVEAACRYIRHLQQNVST
Sequence	fluorescence intensity
GCCCGACGATTTGCCCACATGTCAATCGGATTGGGCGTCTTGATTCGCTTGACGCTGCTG	10500 a.u.
CGTCCTAGTGATTGTGATGTGGGTGCCATGAGGAAGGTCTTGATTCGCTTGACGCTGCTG	7190 a.u.
CTTTCCCGATCTTGCACCGTGGGTGTAGCACATTTGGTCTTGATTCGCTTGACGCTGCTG	8290 a.u.
GATACCAGGAATGTAACCGTGACGGTCAGCATAATCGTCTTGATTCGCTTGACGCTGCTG	5210 a.u.
GTAAAAGTGGCAGCACACCTGATCTAATACTAGCTAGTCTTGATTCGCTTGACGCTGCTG	6040 a.u.
CGGGGTTAAGTTTGTCACAGAACTTGCTTGCAGCAGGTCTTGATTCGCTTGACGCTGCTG	3230 a.u.
TGTCACAGTAGTTATAGCTAAGGTCAATAAGTAGTTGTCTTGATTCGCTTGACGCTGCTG	2870 a.u.
CGTCCTAGTGATTGTCACACAACTTCCATGAGGAAGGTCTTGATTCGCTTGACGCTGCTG	4380 a.u.

Sample 2 — technique: RNA Bind-n-Seq; form: RNA; matrix: in vitro; tested at: 100 nM; reference: input RNA pool; reading: higher = stronger binding
Target: RING finger protein unkempt homolog, zinc fingers 1-6, SBP tag (UNK, Homo sapiens, UniProt Q9C0B0, residues 30-357)
Sequence of UniProt Q9C0B0 (30-357, looked up): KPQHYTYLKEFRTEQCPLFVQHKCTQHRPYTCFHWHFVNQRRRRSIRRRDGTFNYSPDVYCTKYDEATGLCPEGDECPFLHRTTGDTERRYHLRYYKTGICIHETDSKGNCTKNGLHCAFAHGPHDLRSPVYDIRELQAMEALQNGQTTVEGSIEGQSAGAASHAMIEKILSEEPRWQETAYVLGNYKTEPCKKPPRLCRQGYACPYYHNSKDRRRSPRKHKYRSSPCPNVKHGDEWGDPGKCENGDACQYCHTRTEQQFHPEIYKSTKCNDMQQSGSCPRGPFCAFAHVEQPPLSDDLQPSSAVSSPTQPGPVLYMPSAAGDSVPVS
Notes: RNA with constant flanks, vertebrate orthologous sites, ends assumed
Sequence	bound/input enrichment [ratio]
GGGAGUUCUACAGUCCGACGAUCAGUAGUUUCAAGCUUGUUUGCACAGUUCUUUUUUUCCAUUGGAAAUGGAAUUCAUUGCCUUAGGUCUUUUAAAAUAGUGUAUUAUCGUUGGGGCUGGCUCUGUGCUUGAAAACCAGUUUACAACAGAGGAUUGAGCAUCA	2.35
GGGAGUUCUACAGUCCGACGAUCCUAAUUUCUAGUACUUAAGCCAACCAGUCUAAAUACUAUUUAUUUGUGUAAGUUUGUACAUAGAAAUACCAGCCUCAUUGCAGGGGCUUUUUGUUUGUUUAUUCAUUUUUGUUUUAAUGACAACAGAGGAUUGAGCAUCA	0.501
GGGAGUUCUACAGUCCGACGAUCUUCAUAAUCACGCUAAUCGUAAGCUGGAGACGUGUAACAUUGUGUAGCCUUUUGUACAAAUAGACAGAUAGGAAUGGUCCCAUUAGUUUCCUUUUUAAUAUGCUUAAAGUAAGCAGGUGGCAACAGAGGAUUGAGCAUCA	4.38
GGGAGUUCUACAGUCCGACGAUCACAUGCCACUGUCACCAAAACAAACAACUACCACUUUCCAAAUUUCAUUCAGAGCCAUUUUAGUGUUUUCCUAUUCCCUACCCCUCCCACUACUUUCAAUGAUGAAAUACCCUAAGUUCUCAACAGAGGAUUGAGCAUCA	5.38
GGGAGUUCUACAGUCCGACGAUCAUUUAAAAUGUAUUUAGUUUCACUUAAUAACCUCAUUCCUGAGUUCCUUUUUCAUUGAAGUAGAUUUCUUUUUUAUUACUCCAGUUGUAAUAAUAUGAAUAAACAGGAGGCUUGGGCCAGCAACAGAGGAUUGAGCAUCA	0.693
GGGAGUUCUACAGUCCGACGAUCCAUGGGGAUGCUCUGGGGAGUGGCUGGACACUCAGCAUUGCUUCAUUUAUGACUUUGACAAUAGAUAGGCUUCUGGGGGUUUUUGUUUCUGUUUUUUUAAUUUAAUGAUAUUAAAACUUACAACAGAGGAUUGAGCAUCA	0.504
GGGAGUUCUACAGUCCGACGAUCCAACUCAAUGGUUGAGGGCUCUGAACUCAAAAAGGUUCGUUCUAACUCCAGAAUUUACCAUCGGUAUUUUCUGCUGGACGCCGACAUGCAAAGCCUGAGGUGGGAGCCAUCUAAGAAGGACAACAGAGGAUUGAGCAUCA	0.0975
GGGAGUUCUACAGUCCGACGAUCAUCCUUUCGAGCUGUCUCCGGCCGGGGUCGAGGACCAGUCGUUUCAGCGAGGACCUGCAUUUCAAACAAUUUUUUAAAUUGUUGUAUAGGAAGAGAUGUGCCGAAAACAGCAUCUCAAAGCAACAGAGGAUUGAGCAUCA	0.275

Sample 3 — observed: cell-free assay; technique: competition with immobilised ligand; tested at: 1 µM
SMILES: Cc1cc(NC(=O)c2cccc(S(F)(F)(F)(F)F)c2)cc(-n2ccn3nc(-c4cccnc4)cc23)c1
target	remaining binding [%]
PKN1 (Homo sapiens, UniProt Q16512)	100
EGFR (Homo sapiens, UniProt P00533, L861Q)	98.2
NLK (Homo sapiens, UniProt Q9UBE8)	100
CLK1 (Homo sapiens, UniProt P49759)	100
BRSK1 (Homo sapiens, UniProt Q8TDC3)	100

Sample 4 — observed: enzyme activity; action: inhibitor; tested at: 0.5 µM; reference: control
Target: G protein-coupled receptor kinase 5 (GRK5, Homo sapiens, UniProt P34947)
Sequence of UniProt P34947 (whole entry, looked up): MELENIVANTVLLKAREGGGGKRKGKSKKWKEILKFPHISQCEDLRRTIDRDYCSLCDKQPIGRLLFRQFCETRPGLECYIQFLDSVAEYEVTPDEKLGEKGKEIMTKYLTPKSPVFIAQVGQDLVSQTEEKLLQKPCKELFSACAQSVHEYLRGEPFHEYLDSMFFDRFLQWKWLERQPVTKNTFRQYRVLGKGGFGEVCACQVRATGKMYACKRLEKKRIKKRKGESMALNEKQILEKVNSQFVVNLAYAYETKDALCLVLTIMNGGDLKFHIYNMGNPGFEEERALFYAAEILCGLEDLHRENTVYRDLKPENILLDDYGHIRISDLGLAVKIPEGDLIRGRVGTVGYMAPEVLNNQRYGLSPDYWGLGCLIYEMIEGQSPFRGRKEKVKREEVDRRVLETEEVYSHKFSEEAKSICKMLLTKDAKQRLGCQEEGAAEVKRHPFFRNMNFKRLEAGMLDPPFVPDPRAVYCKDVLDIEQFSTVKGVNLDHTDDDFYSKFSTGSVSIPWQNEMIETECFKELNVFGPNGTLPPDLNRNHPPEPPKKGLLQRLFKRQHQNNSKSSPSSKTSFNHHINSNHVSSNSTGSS
Compound	remaining activity [%]
CCCCc1c(-c2ccc(O)cc2)[nH]c2nccnc12	104
O=C1NC(=O)/C(=C/c2ccc3c(c2)OC(F)(F)O3)S1	105
Clc1ccc(Nc2nnc(Cc3ccncc3)c3ccccc23)cc1	110
O=C1c2ccccc2-c2nc3nnnn3nc21	74.3
O=C(O)/C=C/c1cc(Br)c(Br)c(Br)c1Br	104
CN(C)S(=O)(=O)c1ccc2c(c1)/C(=C/c1cc3c([nH]1)CCCC3)C(=O)N2	95.3
O=C(c1ccccc1)c1ccc(N2CCOCC2)cc1O	105
O=Nc1c(-c2c(O)[nH]c3ccccc23)[nH]c2ccccc12	103
NC(=O)c1ccc(-c2nc(-c3ccc4c(c3)OCCO4)c(-c3ccccn3)[nH]2)cc1	102
c1ccc2c(-c3ccncc3)c[nH]c2c1	99.2
Cc1ccc(S(=O)(=O)/C=C/C#N)cc1	105
CC(C)N(CCC(=O)c1ccc2ccccc2c1)Cc1ccccc1	93.7
CCN(CC)CCCCN1c2ccccc2Oc2ccc(Cl)cc21	103
O=C1Cc2c([nH]c3ccc(Br)cc23)-c2ccccc2N1	97
NC(=O)c1cccc(-c2cc(Nc3ccc(OC(F)(F)F)cc3)ncn2)c1	109
O=C1Nc2ccc(Br)cc2/C1=C/c1cc2c([nH]1)CCCC2	106

For quick reference, copied from above (sample 1):
Sequence	fluorescence intensity
GATACCAGGAATGTAACCGTGACGGTCAGCATAATCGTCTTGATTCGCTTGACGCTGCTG	5210 a.u.
GTAAAAGTGGCAGCACACCTGATCTAATACTAGCTAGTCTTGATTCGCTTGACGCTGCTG	6040 a.u.
CGGGGTTAAGTTTGTCACAGAACTTGCTTGCAGCAGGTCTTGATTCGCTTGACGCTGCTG	3230 a.u.
TGTCACAGTAGTTATAGCTAAGGTCAATAAGTAGTTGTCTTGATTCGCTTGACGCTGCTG	2870 a.u.
